Experimental data pooled from the literature.
Compare with care: the assays were run in different laboratories. ± gives the spread as reported.

Compound	organism	test	system	conditions	EC50 [µM]
O=S(=O)(c1ccc(-c2ccc3ncnc(Nc4ccc(O)c(Cl)c4)c3c2)cc1)N1CCOCC1	Leishmania major	parasite growth, resazurin		promastigote	> 15
CCCCCC(=O)NC(CC(=O)N(CC)CC)C(=O)NC(Cc1ccc(F)cc1)C(=O)NC(Cc1ccc(F)cc1F)C(=O)C1(C)CO1 (stereo not drawn)	Trypanosoma brucei	parasite growth, SYBR Green	RHODESIENSE		0.156
O=C(c1ccc(-c2ccc3ncnc(Nc4ccc(OCc5cccc(F)c5)c(Cl)c4)c3c2)cc1)N1CCCCC1	Leishmania major	parasite growth, resazurin		promastigote	1
COc1cccc(/C=N/Nc2nc(Nc3ccccc3)nc(-n3nc(C)cc3C)n2)c1O	Mus musculus	gene silencing, high-content imaging	LDR reporter GFP cells	confirmation, mean of two runs	3.55
COc1cccc(COc2ccc(Nc3ncnc4ccc(-c5ccc(S(=O)(=O)N6CCOCC6)cc5)cc34)cc2Cl)c1	Leishmania major	parasite growth, resazurin		promastigote	> 15
CN(C(=O)[C@H](Cc1ccccc1)NC(=O)Cc1c[nH]c2ccc(O)cc12)c1ccc(Cl)cc1	HIV-2	viral replication			0.32 ± 0.07
Oc1c(/N=N/c2ccccn2)ccc2ccccc12	Mus musculus	gene silencing, high-content imaging	LDR reporter GFP cells	retest, mean of two runs	10
CN1CCN(c2cccc(-c3ccc4ncnc(Nc5ccc(OCc6cccc(F)c6)c(Cl)c5)c4c3)c2)CC1	Leishmania major	parasite growth, resazurin		promastigote	1.9
CCC(=O)N1CCN(c2ccc(NC(=O)c3ccc([N+](=O)[O-])o3)cc2Cl)CC1	Mus musculus	gene silencing, high-content imaging	LDR reporter GFP cells	confirmation, mean of two runs	1.78
[2H]C([2H])(N)C([2H])([2H])NC(=O)c1cc(C2CC2)nc2c1cnn2C(C)C	Enterovirus D68	cytopathic effect	RD, US/MO/14-18947		0.16
CC1=C/C(=N\N=C(/S)Nc2cccnc2)CC(C)(C)C1	Mus musculus	gene silencing, high-content imaging	LDR reporter GFP cells	retest, mean of two runs	7.94
Cc1ccc2c(c1)nc(NC(=O)c1cccc(C(F)(F)F)c1)n2[C@H]1CC[C@H](N)CC1	Trypanosoma brucei brucei	cell growth, CellTiter-Glo	Lister 427 bloodstream form	48 h, mean of 2 experiments	0.288

A few entries again:
Compound	organism	test	system	conditions	EC50 [µM]
CN(C(=O)[C@H](Cc1ccccc1)NC(=O)Cc1c[nH]c2ccc(O)cc12)c1ccc(Cl)cc1	HIV-2	viral replication			0.32 ± 0.07
